# Published values collected from several papers.
# Compare with care: the assays were run in different laboratories.
SMILES,system,conditions,quantity,result
NC(COc1ccccc1C(F)(F)F)c1ccccc1 (centres unmarked),"male Sprague-Dawley rat, serum","intravenous, 5 mg/kg",AUC,0.544 µg·h/mL
C#Cc1cccc(Nc2ncnc3cc(OC)c(OCCCN4CCOCC4)cc23)c1,"Sprague-Dawley rat, plasma","intravenous, 10 mg/kg",AUC,6.11 µg·h/mL
CC1(C)CNC(=O)c2ccccc21,"rat, plasma","oral, 5 mg/kg, single dose",AUC(0-inf),2.94 µg·h/mL
CC(C)(C)C(=O)Nc1ccc2[nH]c(CN3CCC(N(CCCN4CCOCC4)CC4OC(n5cnc6c(N)ncnc65)C(O)C4O)CC3)nc2c1 (centres unmarked),"male Sprague-Dawley rat, plasma","intraperitoneal, 20 mg/kg",AUC,2.65 µg·h/mL
CN1Cc2c(Cl)cc(Cl)cc2C(c2ccc(S(=O)(=O)NCCOCCOCCOCCNC(=O)C(O)C(O)C(=O)NCCOCCOCCOCCNS(=O)(=O)c3ccc(C4CN(C)Cc5c(Cl)cc(Cl)cc54)cc3)cc2)C1 (centres unmarked),"male Sprague-Dawley rat, plasma","oral, 10 mg/kg",AUC,< 0.019 µg·h/mL
CCCCC1NC(=O)c2ccccc21 (racemic),"Wistar rat, plasma","oral, 10 mg/kg",AUC,12.8 µg·h/mL
CN1Cc2c(Cl)cc(Cl)cc2C(c2cccc(S(=O)(=O)NCCOCCOCCOCCNC(=O)C(O)C(O)C(=O)NCCOCCOCCOCCNS(=O)(=O)c3cccc(C4CN(C)Cc5c(Cl)cc(Cl)cc54)c3)c2)C1 (centres unmarked),"male Sprague-Dawley rat, plasma","oral, 9.4 mg/kg",AUC,0.006 µg·h/mL
N#Cc1cnc2cc(OCC3CCNCC3)c(F)cc2c1Nc1cc(F)c(OCc2cccc(Cl)n2)cc1Cl,"male Sprague-Dawley rat, plasma","oral, 30 mg/kg",AUC(0-t),1.3 µg·h/mL
CSCOC1C(=O)C2(C)C(OCSC)CC3OCC3(OC(C)=O)C2C(OC(=O)c2ccccc2)C2(O)CC(OC(=O)C(O)C(C=C(C)C)NC(=O)OC(C)(C)C)C(C)=C1C2(C)C (centres unmarked),"female Sprague-Dawley rat, plasma","intravenous, 4 mg/kg",AUC(0-inf),1.05 µg·h/mL
Cc1cc(/C=C/C#N)cc(C)c1Oc1nc(NC2CCN(Cc3ccc(P(C)(C)=O)cc3)CC2)nc2ccsc12,"male Sprague-Dawley rat, plasma","intravenous, 2 mg/kg",AUC,0.635 µg·h/mL
Cc1ccc(OCC(=O)N(Cc2cccs2)c2ccn[nH]2)cc1,"female Sprague-Dawley rat, plasma","oral, 100 mg/kg, single dose",AUC(0-t),0.157 µg·h/mL

# For quick reference, copied from above:
SMILES,system,conditions,quantity,result
Cc1cc(/C=C/C#N)cc(C)c1Oc1nc(NC2CCN(Cc3ccc(P(C)(C)=O)cc3)CC2)nc2ccsc12,"male Sprague-Dawley rat, plasma","intravenous, 2 mg/kg",AUC,0.635 µg·h/mL
